Experimental data collected from several papers.
Parts stem from different laboratories: compare values within a part only. Positions count from the first letter of the parent shown.

Study 1 — technique: protein-binding microarray; form: double-stranded DNA, one strand shown; matrix: in vitro; tested at: 250 nM; notes: 60-bp whole probe; together with: salmon DNA 0.4 mg/ml; reference: random background probes; direction: higher = stronger binding; all sequences stand within: GCCTAGCAC … GTCTTGATTCGCTTGACGCTGCTG
Target: Interferon regulatory factor 5, full length, phosphomimetic (IRF5, Homo sapiens, UniProt Q13568-2, residues 1-514, K96S/S451D/S453D/S456D/S462D)
| Sequence | log fluorescence [z-score] |
| --- | --- |
| GAAGATTTCAATTAAAAAAAGTGCTAG | 1.47 |
| TTAGGTATCTGGTATCGGTTAGTGCTA | 6.38 |
| TTAGGACTGTACTTTCGGTTAGTGCTA | 10.1 |
| TCATACATGTGTTTAAAACTGTGCTAG | 0.448 |
| TTAGGTATCCTTATCGTTTAGTGCTAG | 0.693 |
| TTATGTTTCGGACTGGGTTAGTGCTAG | 5.74 |
| GCCGGTATCCTTATCCTGACGTGCTAG | -0.00716 |
| TTAGGTTTCCTGTTCCTTTAGTGCTAG | 0.658 |
| GAAACACTAATTTTTACTTTGTGCTAG | 1.76 |
| ATAGGTTTCGACTATCGGTTAGTGCTA | 9.48 |
| TCATTTTTTGGAATGTCACTGTGCTAG | 0.779 |
| TTAGGTCTCGGACTGGGTTGGTGCTAG | -0.348 |
| AAACGGGCTTCTTTTTCTCAGGTGCTA | 0.368 |
| GACAGTTTCGACACTGGGGACGTGCTA | 7.66 |

Study 2 — technique: universal PBM; form: double-stranded DNA, one strand shown; matrix: in vitro; tested at: 600 nM; direction: higher = stronger binding
Target: Sal-like protein 4, full length isoform A (SALL4, Homo sapiens, UniProt Q9UJQ4, residues 1-1053)
Chain of UniProt Q9UJQ4 (whole entry, looked up): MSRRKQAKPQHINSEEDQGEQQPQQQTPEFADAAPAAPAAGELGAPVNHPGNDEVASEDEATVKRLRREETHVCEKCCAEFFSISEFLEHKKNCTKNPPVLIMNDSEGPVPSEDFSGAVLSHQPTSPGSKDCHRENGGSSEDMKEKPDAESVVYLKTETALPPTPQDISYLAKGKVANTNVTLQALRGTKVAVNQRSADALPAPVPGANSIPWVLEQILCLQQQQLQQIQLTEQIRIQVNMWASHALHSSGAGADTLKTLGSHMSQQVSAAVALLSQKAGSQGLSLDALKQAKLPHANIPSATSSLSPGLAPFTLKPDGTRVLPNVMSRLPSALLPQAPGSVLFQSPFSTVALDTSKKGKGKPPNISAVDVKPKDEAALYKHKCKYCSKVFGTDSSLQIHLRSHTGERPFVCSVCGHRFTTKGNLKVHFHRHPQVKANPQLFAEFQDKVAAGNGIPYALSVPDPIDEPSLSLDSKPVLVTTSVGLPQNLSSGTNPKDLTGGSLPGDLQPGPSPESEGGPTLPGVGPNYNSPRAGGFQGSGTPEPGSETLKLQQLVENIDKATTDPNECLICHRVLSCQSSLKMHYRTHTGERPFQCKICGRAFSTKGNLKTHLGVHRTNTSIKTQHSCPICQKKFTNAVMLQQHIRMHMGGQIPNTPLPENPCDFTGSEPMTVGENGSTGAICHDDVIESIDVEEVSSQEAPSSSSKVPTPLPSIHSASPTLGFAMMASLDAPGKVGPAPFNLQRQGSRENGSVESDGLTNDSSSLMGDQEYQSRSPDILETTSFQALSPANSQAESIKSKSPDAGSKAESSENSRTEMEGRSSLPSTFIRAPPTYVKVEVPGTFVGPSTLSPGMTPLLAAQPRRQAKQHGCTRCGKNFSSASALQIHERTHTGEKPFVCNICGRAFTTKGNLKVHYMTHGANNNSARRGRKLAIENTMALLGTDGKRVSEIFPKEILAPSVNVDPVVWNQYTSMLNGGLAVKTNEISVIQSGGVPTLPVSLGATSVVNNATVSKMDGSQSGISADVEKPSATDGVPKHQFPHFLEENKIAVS
Notes: 8-mer, flanks averaged, mean of replicates
| Sequence | E-score |
| --- | --- |
| AATTGACA | 0.177 |
| GGAGGCTA | -0.274 |
| GATGGGCC | -0.315 |
| ACCCTAGC | -0.176 |
| CTTCAACC | -0.0321 |
| GAGCGATA | 0.0846 |
| ACTAGTCG | -0.193 |
| ATTCTGCA | 0.204 |
| CGGCGTGC | -0.231 |
| GCATGGCA | -0.00957 |
| GCTGTGAA | -0.0131 |
| TATGCCGA | 0.148 |
| GCCCGTAC | -0.231 |

Study 3 — technique: RNA Bind-n-Seq; form: RNA; matrix: in vitro; tested at: 200 nM; notes: whole 134-nt RNA, ends assumed; together with: 150 mM KCl; reference: input library; direction: higher = stronger binding
Target: Ras GTPase-activating protein-binding protein 1, full length (G3BP1, Homo sapiens, UniProt Q13283)
Chain of UniProt Q13283 (whole entry, looked up): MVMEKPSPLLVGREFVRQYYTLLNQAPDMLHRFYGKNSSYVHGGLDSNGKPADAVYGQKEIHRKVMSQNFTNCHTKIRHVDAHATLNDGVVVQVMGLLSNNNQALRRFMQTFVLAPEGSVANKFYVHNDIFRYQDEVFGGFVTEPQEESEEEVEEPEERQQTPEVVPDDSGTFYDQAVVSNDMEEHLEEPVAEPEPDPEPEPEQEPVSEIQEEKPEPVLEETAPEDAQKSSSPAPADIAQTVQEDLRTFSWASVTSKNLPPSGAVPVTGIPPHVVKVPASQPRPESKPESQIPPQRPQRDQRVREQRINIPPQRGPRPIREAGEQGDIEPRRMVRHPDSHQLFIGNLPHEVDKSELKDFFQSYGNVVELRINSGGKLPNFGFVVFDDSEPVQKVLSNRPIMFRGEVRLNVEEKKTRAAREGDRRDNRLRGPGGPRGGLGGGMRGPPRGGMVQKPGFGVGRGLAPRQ
All sequences stand within: GGGAGUUCUACAGUCCGACGAUC … UGGAAUUCUCGGGUGUCAAGG
| Sequence | log2 enrichment |
| --- | --- |
| CAAGUCCUGUGCUACACAUCGUAUGUACCGAAUCGGGUGGGUGGGAAAAAAAGGGAAAGUAUUAUGUUACGCCGUUCGGAUCUGCACUUC | 0.179 |
| AAGUCCUGUGCUACACAUCGUAUGUACCGAAUCGGGUUUUUUUGGGAAAGGGAGGGAAAGUAUUAUGUUACGCCGUUCGGAUCUGCACUU | 0.194 |
| UGGGAGGUGGAUGUUGUUUAUUUUUUUAGCUCAUUUCCAGGGGUGGGAAUUUUUUUUUAAUAUGUGUCAUGAAUAAAGUUGUUUUUGAAA | 0.1 |
| CAAGUCCUGUGCUACACAUCGUAUGUACCGAAUCGGGGAAGGGAAGGGGAAGGGGAAAGUAUUAUGUUACGCCGUUCGGAUCUGCACUUC | 1.09 |
| CAAGUCCUGUGCUACACAUCGUAUGUACCGAAUCGGGGUGGGGAGGGGUUUGGGGAAAGUAUUAUGUUACGCCGUUCGGAUCUGCACUUC | 1.2 |
| CACAGACAACACGCACCCACACAGACACAGAGGGAAGGGGUUGGGAUGGAGACAGGGUGCACAGCAGGGCGGGGUAGGACCCCAGCCCCU | 1.56 |
| AAGUCCUGUGCUACACAUCGUAUGUACCGAAUCGGGUUUGGGAAAAAAAGGGUGGGAAAGUAUUAUGUUACGCCGUUCGGAUCUGCACUU | 0.244 |
| CUGUGCUACACAUCGUAUGUACCGAAUCGGGAAAAAAAGGAAAAAAAGGGAAAAAAAGGGGAAAGUAUUAUGUUACGCCGUUCGGAUCUG | -0.901 |

Study 4 — technique: protein-binding microarray; form: double-stranded DNA, one strand shown; matrix: in vitro; tested at: 0.8 µM; notes: whole 60-bp probe, no competitor; direction: higher = stronger binding; all sequences stand within: … GTCTTGATTCGCTTGACGCTGCTG
Target: Centromere-binding protein 1, full length, N-terminal tag (CBF1, Saccharomyces cerevisiae, UniProt P17106, residues 1-351)
Chain of UniProt P17106 (whole entry, looked up): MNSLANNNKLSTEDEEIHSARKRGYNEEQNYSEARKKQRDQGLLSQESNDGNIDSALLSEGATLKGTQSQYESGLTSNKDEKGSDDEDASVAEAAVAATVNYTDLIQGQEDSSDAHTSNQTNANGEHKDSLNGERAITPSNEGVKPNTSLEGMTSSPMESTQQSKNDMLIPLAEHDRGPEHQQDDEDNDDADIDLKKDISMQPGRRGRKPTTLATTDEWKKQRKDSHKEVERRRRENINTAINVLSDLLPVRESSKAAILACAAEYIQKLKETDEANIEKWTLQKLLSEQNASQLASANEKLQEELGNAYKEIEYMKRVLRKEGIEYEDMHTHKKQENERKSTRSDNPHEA
| Sequence | fluorescence intensity [a.u.] |
| --- | --- |
| TGTACGAAGCTATTCCATGTGCATATAGTAGTTAGG | 558 |
| CTATTCTCAATTCATCAGCAGATGGGTCTTCGATTC | 526 |
| GAATCTGCATCAGGTGACCCAAACTAGAATAAGTAG | 5870 |
| GAAACTAATTTAAACAACGTGTATTATTGTGCTTAG | 589 |
| CTAGGTTTCCTGCACCACCAGCCCCCATATGCTTTC | 487 |
| CTAATCTTTTCTCACCTCACAACGTTTATAGTGTTC | 536 |
| CTATAGTGTTTTCAAAACACCACGAAAAGACTTTTC | 479 |
| GAAACAGGTAAATGCCACACCATTAGGGAATATTAG | 531 |
| CTACCAAAGCCGGGTCACCTAACTTATGGCCAATTC | 502 |
| GAAAATTTTGAAATCCACATGACCTTGAATTAATAG | 2460 |
| TGTACGAAGCTATAGGTGATTACTATAGTAGTTAGG | 543 |
| CTACTTTGTATTCCTCATGTGAGAATGTTGGACTTC | 587 |
| CTAGGCGCAAATTACCATGTGAGCGTGCGGGAATTC | 1020 |
| GAAACCATATTTATAAATGTGATCATCATGGTCTAG | 605 |
| GAAGCGCAAATCGTTTTCATGACGGAGTATTTATAG | 519 |
| TGTACGAAGCTATGTGGTGTTCTTATAGTAGTTAGG | 533 |
| CTAGTGCGAAGTGACCGCGTGGAAGGCCGGGTATTC | 525 |

Study 5 — technique: aptamer microarray, sandwich; form: DNA with 2'F-ANA; matrix: in vitro; tested at: 200 nM; together with: Cy3 exosite-II aptamer, 400 nM; direction: higher = stronger binding; sequence: GGTTGGTGTGGTTGG
Target: Prothrombin, mature alpha-thrombin (F2, Homo sapiens, UniProt P00734)
Notes: whole 15-mer aptamer, many near background
| Modification | mean fluorescence intensity [a.u.] |
| --- | --- |
| 2'F-ANA at 3 7 11 13 | 1110 |
| 2'F-ANA at 1 2 3 6 | 217 |
| 2'F-ANA at 1 2 5 6 7 8 9 10 12 13 14 15 | 60.2 |
| 2'F-ANA at 1 4 5 6 7 8 9 10 13 14 | 50.3 |
| 2'F-ANA at 3 4 5 6 8 9 10 12 15 | 59.7 |
| 2'F-ANA at 1 3 5 7 8 10 11 12 14 | 101 |
| 2'F-ANA at 4 6 10 11 14 | 57 |
| 2'F-ANA at 3 6 7 9 10 12 13 | 521 |
| 2'F-ANA at 1 8 10 12 15 | 75.5 |
| 2'F-ANA at 2 7 10 14 | 90.5 |
| 2'F-ANA at 1 3 4 6 7 9 10 12 13 | 71.7 |
| 2'F-ANA at 1 2 6 8 11 13 14 15 | 93.1 |
| 2'F-ANA at 1 2 4 8 12 13 14 | 125 |
| 2'F-ANA at 3 4 5 6 9 10 12 14 15 | 53.7 |
| 2'F-ANA at 2 4 5 6 10 12 13 15 | 55.7 |

Study 6 — technique: DHFR PCA, deep sequencing; matrix: yeast; together with: (+)-ABA 0.39 µM; reference: wild-type fitted maximum; direction: higher = stronger binding
Target: ABI1, truncated, D143A, DHFR fusion (Arabidopsis thaliana)
Notes: methotrexate growth selection, single substitutions
Starting sequence: PYL1, truncated, DHFR fusion (Arabidopsis thaliana); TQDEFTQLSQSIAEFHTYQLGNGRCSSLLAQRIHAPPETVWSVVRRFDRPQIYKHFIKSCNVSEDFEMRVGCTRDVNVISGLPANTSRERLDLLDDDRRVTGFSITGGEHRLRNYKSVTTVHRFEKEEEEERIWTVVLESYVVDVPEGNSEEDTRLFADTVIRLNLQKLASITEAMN
| Variant | relative binding score [%] |
| --- | --- |
| L156W | 18 |
| V40K | -19.4 |
| V142Q | 22.5 |
| P146F | -28.6 |
| V62Y | 2.95 |
| Y141C | 11.6 |
| T120E | -13.2 |
| R155P | -8.94 |
| H122W | -15 |
| C72F | -5.35 |
| L169H | 1.21 |
| I52Y | 10.9 |
| A175D | 32.6 |
| A175L | 16.2 |
| V44F | -5.7 |
| E147C | 11.8 |
| D75E | 73.2 |
| R132V | 41.8 |
| T86K | 17.5 |
| A35G | -0.985 |
| S140W | 7.73 |
| R90N | -0.27 |
| T120A | 8.67 |
| V118N | -0.433 |

Excerpt of the above (study 6):
| Variant | relative binding score [%] |
| --- | --- |
| L169H | 1.21 |
| I52Y | 10.9 |
| A175D | 32.6 |
| A175L | 16.2 |
| V44F | -5.7 |
| E147C | 11.8 |
